Measurements collected from several papers.
Each line is one published result; not all experiments were run side by side. Numbers after ± are the reported error.
ISOC2: Isochorismatase domain-containing protein 2 (ISOC2, Homo sapiens, UniProt Q96AB3)
Chain of UniProt Q96AB3 (whole entry, looked up): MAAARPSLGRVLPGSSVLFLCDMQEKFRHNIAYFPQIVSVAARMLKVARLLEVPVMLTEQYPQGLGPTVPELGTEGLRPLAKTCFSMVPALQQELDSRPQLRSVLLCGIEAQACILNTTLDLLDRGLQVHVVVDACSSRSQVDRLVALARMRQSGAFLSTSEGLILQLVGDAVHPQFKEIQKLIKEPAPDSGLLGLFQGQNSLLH
DRD2: D(2) dopamine receptor (DRD2, Homo sapiens, UniProt P14416)
Chain of UniProt P14416 (whole entry, looked up): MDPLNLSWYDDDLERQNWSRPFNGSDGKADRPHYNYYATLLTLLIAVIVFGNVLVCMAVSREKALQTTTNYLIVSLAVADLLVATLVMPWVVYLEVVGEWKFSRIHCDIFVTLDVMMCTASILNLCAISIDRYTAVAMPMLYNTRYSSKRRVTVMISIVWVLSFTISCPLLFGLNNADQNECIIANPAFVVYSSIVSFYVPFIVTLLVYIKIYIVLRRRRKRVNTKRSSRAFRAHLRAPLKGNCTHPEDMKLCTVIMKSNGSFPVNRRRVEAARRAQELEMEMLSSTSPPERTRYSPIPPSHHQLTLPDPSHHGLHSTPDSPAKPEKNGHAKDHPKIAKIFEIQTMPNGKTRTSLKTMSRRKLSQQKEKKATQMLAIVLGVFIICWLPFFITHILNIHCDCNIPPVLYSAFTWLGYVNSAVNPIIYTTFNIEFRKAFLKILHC
Chain of UniProt P14618 (whole entry, looked up): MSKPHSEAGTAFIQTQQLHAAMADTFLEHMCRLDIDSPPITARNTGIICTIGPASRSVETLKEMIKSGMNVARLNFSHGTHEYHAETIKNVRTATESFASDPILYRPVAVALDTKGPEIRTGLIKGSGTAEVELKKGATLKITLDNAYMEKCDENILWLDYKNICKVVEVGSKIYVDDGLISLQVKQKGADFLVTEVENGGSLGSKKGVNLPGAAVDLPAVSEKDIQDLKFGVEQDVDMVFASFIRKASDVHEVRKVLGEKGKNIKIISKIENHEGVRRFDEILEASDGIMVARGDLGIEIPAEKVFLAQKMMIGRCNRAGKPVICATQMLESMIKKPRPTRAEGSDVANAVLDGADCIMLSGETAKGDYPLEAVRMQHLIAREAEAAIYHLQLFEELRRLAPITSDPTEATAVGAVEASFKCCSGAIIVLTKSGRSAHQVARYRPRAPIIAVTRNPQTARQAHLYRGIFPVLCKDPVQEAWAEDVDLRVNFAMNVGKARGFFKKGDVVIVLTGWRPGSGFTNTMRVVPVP
Chain of UniProt P02763 (whole entry, looked up): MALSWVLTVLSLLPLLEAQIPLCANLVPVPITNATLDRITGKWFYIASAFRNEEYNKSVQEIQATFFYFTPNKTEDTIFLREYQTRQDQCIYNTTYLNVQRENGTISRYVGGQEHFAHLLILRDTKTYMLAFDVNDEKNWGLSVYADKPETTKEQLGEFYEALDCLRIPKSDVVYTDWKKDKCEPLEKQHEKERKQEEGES
Chain of UniProt Q16774 (whole entry, looked up): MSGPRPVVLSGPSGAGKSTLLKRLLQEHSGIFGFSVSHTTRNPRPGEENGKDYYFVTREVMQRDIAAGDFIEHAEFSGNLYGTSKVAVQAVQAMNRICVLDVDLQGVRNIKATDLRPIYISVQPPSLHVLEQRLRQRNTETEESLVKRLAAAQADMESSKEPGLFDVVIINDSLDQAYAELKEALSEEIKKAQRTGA
Chain of UniProt P23458 (whole entry, looked up): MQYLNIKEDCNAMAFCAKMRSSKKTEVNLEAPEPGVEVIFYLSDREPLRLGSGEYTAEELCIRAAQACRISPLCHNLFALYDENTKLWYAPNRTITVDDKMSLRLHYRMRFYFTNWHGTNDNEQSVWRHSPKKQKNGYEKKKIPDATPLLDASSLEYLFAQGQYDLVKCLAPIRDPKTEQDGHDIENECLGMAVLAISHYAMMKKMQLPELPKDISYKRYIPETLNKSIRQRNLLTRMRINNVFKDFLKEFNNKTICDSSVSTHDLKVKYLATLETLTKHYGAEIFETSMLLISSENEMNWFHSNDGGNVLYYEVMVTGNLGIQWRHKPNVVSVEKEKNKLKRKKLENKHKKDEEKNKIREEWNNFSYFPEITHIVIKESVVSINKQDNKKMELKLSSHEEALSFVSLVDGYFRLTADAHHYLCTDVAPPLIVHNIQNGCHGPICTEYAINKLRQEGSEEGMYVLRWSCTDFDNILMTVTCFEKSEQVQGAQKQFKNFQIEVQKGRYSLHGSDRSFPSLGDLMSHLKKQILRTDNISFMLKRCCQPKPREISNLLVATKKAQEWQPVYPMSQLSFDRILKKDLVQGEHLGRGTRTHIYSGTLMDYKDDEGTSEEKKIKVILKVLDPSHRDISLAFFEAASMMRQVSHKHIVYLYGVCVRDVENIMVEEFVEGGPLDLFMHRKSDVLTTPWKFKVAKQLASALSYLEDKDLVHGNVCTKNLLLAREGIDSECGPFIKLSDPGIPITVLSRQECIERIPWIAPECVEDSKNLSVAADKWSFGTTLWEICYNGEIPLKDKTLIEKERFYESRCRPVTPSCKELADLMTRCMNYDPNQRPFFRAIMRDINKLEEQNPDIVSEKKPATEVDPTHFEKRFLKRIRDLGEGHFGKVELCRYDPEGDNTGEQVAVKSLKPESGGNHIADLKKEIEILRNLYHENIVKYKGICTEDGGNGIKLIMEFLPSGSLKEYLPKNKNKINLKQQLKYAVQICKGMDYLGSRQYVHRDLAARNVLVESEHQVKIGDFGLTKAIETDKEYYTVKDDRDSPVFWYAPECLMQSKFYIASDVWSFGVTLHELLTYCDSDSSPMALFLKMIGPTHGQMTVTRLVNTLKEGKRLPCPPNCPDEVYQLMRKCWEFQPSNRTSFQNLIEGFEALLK

| Compound | target | test | system | setting | measurement | result |
| --- | --- | --- | --- | --- | --- | --- |
| CN1CCN(c2ccc(Nc3ncc4cc(C#N)c(=O)n(C5CCCC5)c4n3)cc2)CC1 | JAK1 (Homo sapiens, UniProt P23458) | – | – | – | IC50 | 7.16 µM |
| CCCCCCCCCCCCCCCCCCc1ccc(O)cc1 | Albumin (ALB, Homo sapiens, UniProt P02768) | modified Stern–Volmer | PBS | 37 °C | Kb | 19300 µM |
| O=C(CCCCCCNC(=O)c1cnc(N(c2ccccc2)c2ccccc2)nc1)NO | ISOC2 | inhibitor, competition pulldown | SW620 and MV4-11 lysate | 1 h | Kd | 0.00813 µM |
| Cc1[nH]c(C)c(S(=O)(=O)Nc2ccc(C(C)(C)O)c(Cl)c2)c1C(=O)N1CCC(F)(F)C1 | DRD2 | – | – | – | IC50 | > 100 µM |
| Nc1nc(-c2ccc(Cl)c(S(N)(=O)=O)c2)cs1 | CA2 (Homo sapiens, UniProt P00918) | binding, thermal shift | – | pH 7.0, 25 °C | Kd | 0.29 µM |
| CCN(CC)C(=O)c1c(C)[nH]c(C)c1S(=O)(=O)Nc1ccc(C(F)(F)F)c(Cl)c1 | DRD2 | – | – | – | IC50 | > 100 µM |
| C=C1CC[C@H](O)C/C1=C/C=C1\CCC[C@]2(C)[C@@H]([C@H](C)CCCC(C)C)CC[C@@H]12 | CYP125 ancestral reconstruction | UV-Vis difference spectra | – | Morrison fit, fitted enzyme | Kd | 1.2 ± 0.8 µM |
| Cc1[nH]c(C)c(S(=O)(=O)Nc2ccc(C(F)(F)F)c(Cl)c2)c1C(=O)N1C2CCC1CC2 | DRD2 | – | – | – | IC50 | > 100 µM |
| Nc1ncnc2c1ncn2[C@@H]1O[C@H](COP(=O)(O)OP(=O)(O)O)[C@@H](O)[C@H]1O | GUK1 (Homo sapiens, UniProt Q16774) | binding, ITC | – | together with: ATPγS | Kd | 11 ± 2 µM |
| O=C(COP(=O)(O)O)[C@@H](O)[C@H](O)[C@H](O)COP(=O)(O)O | Pyruvate kinase PKM (PKM, Homo sapiens, UniProt P14618) | enzyme activity, activator | MGC-803 cell lysate | together with: 0.2 mM PEP, 2 mM ADP | AC50 | 0.0439 ± 0.0189 µM |
| CC(=O)c1ccc(NS(=O)(=O)c2c(C)[nH]c(C)c2C(=O)N2CCC(F)(F)C2)cc1Cl | DRD2 | – | – | – | IC50 | > 100 µM |
| COc1ccccc1OCCNCC(O)COc1cccc2[nH]c3ccccc3c12 (stereo not shown) | Alpha-1-acid glycoprotein 1, F1/S variants (ORM1, Homo sapiens, UniProt P02763) | competitive inhibitor, ultrafiltration | – | 15 min, 37 °C, together with: [3H]tamsulosin | Ki | 5.06 µM |
| Nc1ccccc1NC(=O)c1ccc(CNC(=O)OCc2cccnc2)cc1 | ISOC2 | inhibitor, competition pulldown | SW620 and MV4-11 lysate | 1 h | Kd | > 30.2 µM |

For quick reference, copied from above:
| Compound | target | test | system | setting | measurement | result |
| --- | --- | --- | --- | --- | --- | --- |
| COc1ccccc1OCCNCC(O)COc1cccc2[nH]c3ccccc3c12 (stereo not shown) | Alpha-1-acid glycoprotein 1, F1/S variants (ORM1, Homo sapiens, UniProt P02763) | competitive inhibitor, ultrafiltration | – | 15 min, 37 °C, together with: [3H]tamsulosin | Ki | 5.06 µM |
